Experimental data of several laboratories.
Each line is one published result; not all experiments were run side by side. Numbers after ± are the reported error.
EHMT2: Histone-lysine N-methyltransferase EHMT2 (EHMT2, Homo sapiens, UniProt Q96KQ7)
UniProt Q96KQ7, sequence (whole entry, looked up): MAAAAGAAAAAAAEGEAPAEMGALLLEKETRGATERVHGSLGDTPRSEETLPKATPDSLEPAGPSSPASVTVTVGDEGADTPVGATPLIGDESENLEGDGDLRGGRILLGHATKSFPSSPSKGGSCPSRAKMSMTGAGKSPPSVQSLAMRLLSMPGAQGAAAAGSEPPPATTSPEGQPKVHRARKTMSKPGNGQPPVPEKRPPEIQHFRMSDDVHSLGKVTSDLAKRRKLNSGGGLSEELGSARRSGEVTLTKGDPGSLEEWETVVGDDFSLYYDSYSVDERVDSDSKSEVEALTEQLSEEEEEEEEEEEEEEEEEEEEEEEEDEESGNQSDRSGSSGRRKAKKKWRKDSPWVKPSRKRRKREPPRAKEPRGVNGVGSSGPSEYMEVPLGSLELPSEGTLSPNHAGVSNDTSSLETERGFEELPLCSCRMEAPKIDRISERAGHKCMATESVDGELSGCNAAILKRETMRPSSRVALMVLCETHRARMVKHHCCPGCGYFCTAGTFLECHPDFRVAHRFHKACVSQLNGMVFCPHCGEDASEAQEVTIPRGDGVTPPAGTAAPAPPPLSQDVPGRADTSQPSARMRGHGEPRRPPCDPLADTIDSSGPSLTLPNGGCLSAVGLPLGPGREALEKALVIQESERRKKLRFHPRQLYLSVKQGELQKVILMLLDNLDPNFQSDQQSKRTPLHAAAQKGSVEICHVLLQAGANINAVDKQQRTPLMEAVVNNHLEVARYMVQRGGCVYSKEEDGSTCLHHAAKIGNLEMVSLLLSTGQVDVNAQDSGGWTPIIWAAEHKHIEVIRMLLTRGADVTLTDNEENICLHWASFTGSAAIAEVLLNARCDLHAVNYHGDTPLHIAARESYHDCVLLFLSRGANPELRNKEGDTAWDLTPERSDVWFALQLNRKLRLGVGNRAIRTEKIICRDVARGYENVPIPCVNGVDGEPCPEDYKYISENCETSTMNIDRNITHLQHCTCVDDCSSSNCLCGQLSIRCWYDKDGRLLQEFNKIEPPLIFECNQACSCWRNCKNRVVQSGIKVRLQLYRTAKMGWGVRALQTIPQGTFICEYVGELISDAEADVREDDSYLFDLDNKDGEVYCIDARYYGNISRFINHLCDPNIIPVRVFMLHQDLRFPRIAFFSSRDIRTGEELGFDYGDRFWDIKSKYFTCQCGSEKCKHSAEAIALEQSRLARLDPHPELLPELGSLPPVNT
RIPK2: Receptor-interacting serine/threonine-protein kinase 2 (RIPK2, Homo sapiens, UniProt O43353)
UniProt O43353, sequence (whole entry, looked up): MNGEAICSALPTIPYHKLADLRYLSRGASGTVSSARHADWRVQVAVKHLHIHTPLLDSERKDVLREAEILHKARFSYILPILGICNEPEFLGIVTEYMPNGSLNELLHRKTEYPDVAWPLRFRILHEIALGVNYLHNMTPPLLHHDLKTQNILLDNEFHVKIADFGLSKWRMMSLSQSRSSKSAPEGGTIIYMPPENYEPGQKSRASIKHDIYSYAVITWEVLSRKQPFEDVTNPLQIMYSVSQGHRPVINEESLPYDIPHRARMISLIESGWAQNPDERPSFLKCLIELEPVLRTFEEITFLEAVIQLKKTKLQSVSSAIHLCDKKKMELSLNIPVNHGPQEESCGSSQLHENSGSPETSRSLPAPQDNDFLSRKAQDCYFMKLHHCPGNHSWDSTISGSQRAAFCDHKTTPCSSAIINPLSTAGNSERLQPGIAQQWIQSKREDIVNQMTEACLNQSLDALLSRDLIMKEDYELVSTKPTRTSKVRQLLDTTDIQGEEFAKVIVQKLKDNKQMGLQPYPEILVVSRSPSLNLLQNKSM
Ephx2: Bifunctional epoxide hydrolase 2 (Ephx2, Mus musculus, UniProt P34914)
UniProt P34914, sequence (whole entry, looked up): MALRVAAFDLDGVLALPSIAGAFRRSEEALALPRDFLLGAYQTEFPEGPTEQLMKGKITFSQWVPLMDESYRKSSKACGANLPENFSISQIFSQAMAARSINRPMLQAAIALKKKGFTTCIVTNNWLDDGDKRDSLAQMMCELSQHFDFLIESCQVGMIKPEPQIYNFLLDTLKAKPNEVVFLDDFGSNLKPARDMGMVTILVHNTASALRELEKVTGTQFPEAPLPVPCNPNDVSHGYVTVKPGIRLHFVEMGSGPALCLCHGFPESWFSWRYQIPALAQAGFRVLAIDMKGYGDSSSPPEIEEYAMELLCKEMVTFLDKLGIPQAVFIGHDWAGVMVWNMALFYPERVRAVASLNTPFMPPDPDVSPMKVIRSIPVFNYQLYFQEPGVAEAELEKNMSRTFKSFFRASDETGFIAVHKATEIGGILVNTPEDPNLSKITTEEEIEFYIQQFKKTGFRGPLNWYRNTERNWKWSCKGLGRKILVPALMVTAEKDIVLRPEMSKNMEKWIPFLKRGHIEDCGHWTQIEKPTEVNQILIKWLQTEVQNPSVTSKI
ALOX5: Polyunsaturated fatty acid 5-lipoxygenase (ALOX5, Homo sapiens, UniProt P09917)
UniProt P42336, sequence (whole entry, unmodified, looked up): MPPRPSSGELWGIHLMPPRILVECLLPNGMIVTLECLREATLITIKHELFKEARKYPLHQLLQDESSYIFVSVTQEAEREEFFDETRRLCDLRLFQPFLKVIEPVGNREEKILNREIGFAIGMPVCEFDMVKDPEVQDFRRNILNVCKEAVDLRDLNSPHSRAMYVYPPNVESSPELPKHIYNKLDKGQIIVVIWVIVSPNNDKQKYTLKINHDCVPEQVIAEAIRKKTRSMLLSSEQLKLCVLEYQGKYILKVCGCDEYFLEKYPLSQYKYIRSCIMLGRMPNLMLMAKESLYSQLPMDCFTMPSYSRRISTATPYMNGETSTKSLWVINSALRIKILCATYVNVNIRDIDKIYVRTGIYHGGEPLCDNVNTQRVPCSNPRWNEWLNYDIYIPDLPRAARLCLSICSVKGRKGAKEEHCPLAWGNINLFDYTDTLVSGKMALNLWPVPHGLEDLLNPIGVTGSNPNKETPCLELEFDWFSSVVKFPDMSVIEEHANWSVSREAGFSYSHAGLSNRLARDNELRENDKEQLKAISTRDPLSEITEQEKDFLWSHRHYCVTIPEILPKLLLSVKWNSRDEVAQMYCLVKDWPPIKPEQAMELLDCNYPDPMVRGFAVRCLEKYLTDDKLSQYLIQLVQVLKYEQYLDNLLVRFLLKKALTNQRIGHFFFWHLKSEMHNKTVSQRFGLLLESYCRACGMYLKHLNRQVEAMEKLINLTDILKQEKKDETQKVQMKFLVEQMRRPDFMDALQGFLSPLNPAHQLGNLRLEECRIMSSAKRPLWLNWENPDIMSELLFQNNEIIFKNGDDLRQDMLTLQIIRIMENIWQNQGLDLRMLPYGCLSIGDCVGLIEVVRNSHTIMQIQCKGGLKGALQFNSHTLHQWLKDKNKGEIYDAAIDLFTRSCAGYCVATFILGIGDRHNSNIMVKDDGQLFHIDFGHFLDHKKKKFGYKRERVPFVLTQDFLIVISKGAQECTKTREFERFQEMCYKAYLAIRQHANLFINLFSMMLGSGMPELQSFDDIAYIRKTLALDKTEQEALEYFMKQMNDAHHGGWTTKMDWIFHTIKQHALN
UniProt P09917, sequence (whole entry, looked up): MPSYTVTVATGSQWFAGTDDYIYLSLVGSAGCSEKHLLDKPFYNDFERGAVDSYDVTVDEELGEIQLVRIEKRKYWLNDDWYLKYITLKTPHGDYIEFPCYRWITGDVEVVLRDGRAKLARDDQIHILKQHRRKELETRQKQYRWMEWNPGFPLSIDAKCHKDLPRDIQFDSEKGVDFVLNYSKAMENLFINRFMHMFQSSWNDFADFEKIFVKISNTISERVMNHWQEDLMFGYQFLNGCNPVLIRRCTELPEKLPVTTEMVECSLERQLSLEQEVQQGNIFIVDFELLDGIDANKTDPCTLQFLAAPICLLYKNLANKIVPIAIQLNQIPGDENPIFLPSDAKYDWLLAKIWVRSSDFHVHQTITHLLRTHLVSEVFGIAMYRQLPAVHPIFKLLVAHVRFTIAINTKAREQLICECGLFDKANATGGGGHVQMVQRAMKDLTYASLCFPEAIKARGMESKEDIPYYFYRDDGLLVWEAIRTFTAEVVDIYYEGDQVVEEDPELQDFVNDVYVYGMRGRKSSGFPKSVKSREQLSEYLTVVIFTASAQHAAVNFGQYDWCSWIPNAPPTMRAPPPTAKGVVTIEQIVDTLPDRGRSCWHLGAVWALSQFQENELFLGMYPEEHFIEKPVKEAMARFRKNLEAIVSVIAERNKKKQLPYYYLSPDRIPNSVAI
UniProt Q9P0L2, sequence (whole entry, looked up): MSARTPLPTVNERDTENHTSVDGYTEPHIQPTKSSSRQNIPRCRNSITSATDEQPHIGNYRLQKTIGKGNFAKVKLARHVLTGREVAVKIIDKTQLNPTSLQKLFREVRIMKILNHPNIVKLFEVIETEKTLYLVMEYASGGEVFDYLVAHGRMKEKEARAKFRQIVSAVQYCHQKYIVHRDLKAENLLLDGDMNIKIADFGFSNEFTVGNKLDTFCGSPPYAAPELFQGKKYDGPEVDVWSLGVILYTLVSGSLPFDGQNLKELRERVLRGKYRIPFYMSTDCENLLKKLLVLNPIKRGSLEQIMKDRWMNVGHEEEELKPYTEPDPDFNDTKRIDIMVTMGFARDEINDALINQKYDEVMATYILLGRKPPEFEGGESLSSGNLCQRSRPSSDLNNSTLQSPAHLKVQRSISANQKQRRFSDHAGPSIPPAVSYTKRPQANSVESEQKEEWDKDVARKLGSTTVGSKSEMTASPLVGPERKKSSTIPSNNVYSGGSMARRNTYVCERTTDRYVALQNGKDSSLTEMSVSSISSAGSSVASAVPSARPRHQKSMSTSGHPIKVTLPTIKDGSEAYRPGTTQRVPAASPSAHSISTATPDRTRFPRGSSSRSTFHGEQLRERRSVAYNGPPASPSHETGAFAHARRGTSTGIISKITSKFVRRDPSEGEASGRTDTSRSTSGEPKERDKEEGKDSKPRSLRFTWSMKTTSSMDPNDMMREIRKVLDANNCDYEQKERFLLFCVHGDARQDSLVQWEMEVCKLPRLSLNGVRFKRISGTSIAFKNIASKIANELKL
UniProt P24666, sequence (whole entry, looked up): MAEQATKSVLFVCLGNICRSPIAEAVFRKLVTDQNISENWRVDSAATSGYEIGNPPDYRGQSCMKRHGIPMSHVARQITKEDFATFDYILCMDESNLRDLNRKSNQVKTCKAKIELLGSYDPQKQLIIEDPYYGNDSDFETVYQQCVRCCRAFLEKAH

Compound	target	assay	test system	conditions	IC50
Cc1nc(NC(=O)N2CCCC2)sc1-c1csc(C(C)(C)C)n1	Phosphatidylinositol 4,5-bisphosphate 3-kinase catalytic subunit alpha isoform (PIK3CA, Homo sapiens, UniProt P42336, H1047R)	enzyme activity, inhibitor, TR-FRET			0.55 µM
Cc1ccc2oc(-c3c4c(N)n[nH]c(=O)c4nn3-c3ccc(NC(=O)/C=C/CN(C)C)cc3)c(C)c2c1	Discoidin domain-containing receptor 2 (DDR2, Homo sapiens, UniProt Q16832)	enzyme activity, inhibitor, ELISA			> 1 µM
COc1cc2c(NC3CCN(C(C)C)CC3)cc(N3CCOCC3)nc2cc1OCCCN1CCCC1	EHMT2	enzyme activity, inhibitor			0.019 µM
N=C(N)NCCC[C@H](NC(=O)[C@H](CC(=O)O)NC(=O)[C@@H]1CSCC(=O)NCC(=O)N[C@@H](Cc2c[nH]cn2)C(=O)N[C@H](Cc2ccccc2)C(=O)N[C@@H](CCCNC(=N)N)C(=O)N[C@H](Cc2c[nH]c3ccccc23)C(=O)N1)C(=O)N[C@@H](Cc1ccccc1)C(=O)NCC(N)=O	Melanocyte-stimulating hormone receptor (MC1R, Homo sapiens, UniProt Q01726)	ligand displacement, radioligand			1.8 µM
CNC(=O)c1cc(C)ccc1NC(=O)c1ccc(-c2c(C)ccc3[nH]ncc23)c(C)c1	Tyrosine-protein kinase Fgr (FGR, Homo sapiens, UniProt P09769)	target engagement in cells, BRET			34.5 µM
Oc1c(C(Nc2nc3ccccc3s2)c2cccc(OCc3ccccc3)c2)ccc2cccnc12 (stereo not shown)	Genome polyprotein, protease (Dengue virus type 2, UniProt P14340)	enzyme activity, inhibitor, fluorescence			1.29 µM
c1ccc(CCC2CCNC2)cc1 (stereo not shown)	Bifunctional dihydrofolate reductase-thymidylate synthase (Plasmodium falciparum K1, UniProt P13922)	enzyme activity, inhibitor, absorbance			258 µM
C=CC(=O)N1CCc2ccc(-n3c(=O)ccc4cnc5ccc(-c6cnn(C)c6)cc5c43)cc21	RIPK2	enzyme activity, inhibitor			5.69 µM
Cc1cc(N2CC[C@@](C#N)(C3CC3)C2=O)cc(NC(=O)Cc2ccccc2)n1	Bifunctional glutamate/proline--tRNA ligase (EPRS1, Homo sapiens, UniProt P07814)	enzyme activity, inhibitor, absorbance			0.0456 µM
CCCn1c(=O)c2[nH]c(-c3ccc(OCC(=O)NCCNC(=O)CCCCCNC(=O)CCCCCNS(=O)(=O)c4cccc5c(N(C)C)cccc45)cc3)nc2n(CCC)c1=O	Adenosine receptor A1 (ADORA1, Homo sapiens, UniProt P30542)	ligand displacement in cells, radioligand			0.186 µM
C=CS(=O)(=O)Nc1ccc2nc(NCCCCCN(C)C)nc(NCCCCCCN(C)C)c2c1	Histone-lysine N-methyltransferase SETDB1, triple Tudor domain (SETDB1, Homo sapiens, UniProt Q15047)	binding, inhibitor			0.73 ± 0.67 µM
CN1CCN(Cc2ccc(NC(=O)c3ccc(C(C)(C)C)c(C#Cc4cnc5cccnn45)c3)cc2C(F)(F)F)CC1	RIPK2	enzyme activity, inhibitor, ADP-Glo kinase		10 ng enzyme	> 10 µM
O=C(Nc1ccc(-c2nc(-c3ccccc3)cs2)cc1)C1CCN(Cc2ccc(F)cc2)CC1	Ephx2	enzyme activity, inhibitor, fluorescence		pH 7.4, with preincubation	0.158 µM
COC(=O)C1C(C=NN=CC2=Cc3cc4c(cc3C(c3cc(OC)c(OC)c(OC)c3)C2C(=O)OC)OCO4)=Cc2cc3c(cc2C1c1cc(OC)c(OC)c(OC)c1)OCO3 (stereo not shown)	tubulin alpha/beta (Leishmania infantum, UniProt A0A381MCS3+A4HTR0)	tubulin polymerization, inhibitor		37 °C	> 20 µM
Cc1ccc(Cc2c(-c3ccccc3O)nc3ncnn3c2-c2ccccc2)cc1	E3 ubiquitin-protein ligase Mdm2, with p53 (MDM2, Homo sapiens, UniProt Q00987)	inhibitor			0.54 ± 0.037 µM
O=CCCCC=O	Tryptase beta-2 (TPSB2, Homo sapiens, UniProt P20231)			pH 7.4	> 10000 µM
O=c1cc(-c2ccc(O)cc2)oc2cc(O)ccc12	ALOX5	enzyme activity, inhibitor, HPLC			5 µM
C=CCOc1ccc(/C=C2\SC(=S)NC2=O)cc1	Phosphatidylinositol 4,5-bisphosphate 3-kinase catalytic subunit alpha isoform (PIK3CA, Homo sapiens, UniProt P42336)	enzyme activity, inhibitor, radiometric			2.7 µM
CC12CC3CC(C1)CC(NC(=O)NC1CCC(Oc4ccc(C(=O)O)cc4)CC1)(C3)C2 (stereo not shown)	Ephx2	enzyme activity, inhibitor, fluorescence			0.002 µM
Cc1[nH]c2ccccc2c1CCNC(=O)c1ccccc1F	ACTR3/Actin-related protein 2 (Homo sapiens, UniProt P61158+P61160)	actin polymerization, inhibitor, pyrenyl-actin polymerization			4 µM
Oc1cc(O)c2c(c1)O[C@H](c1ccc(O)c(O)c1)[C@H](O)[C@H]2c1c(O)cc(O)c2c1O[C@H](c1ccc(O)c(O)c1)[C@H](O)[C@H]2c1c(O)cc(O)c2c1O[C@H](c1ccc(O)c(O)c1)[C@H](O)[C@H]2c1c(O)cc(O)c2c1O[C@H](c1ccc(O)c(O)c1)[C@H](O)C2	alpha-glucosidase (Bacillus stearothermophilus)	inhibitor		20 min, pH 6.8, 60 °C, added: pNPG substrate	1.7 ± 0.1 µM
COc1cc(O)ccc1CC[C@@H](c1ccc(O)cc1)c1cc2c(c(C)c1O)O[C@H](c1ccc(O)cc1)CC2	ALOX5	5-LO product formation	human PMNL	added: A23187	0.4 µM
CC(C)CCC[C@@H](C)[C@H]1CC[C@H]2[C@@H]3CC=C4C[C@@H](OS(=O)(=O)O)CC[C@]4(C)[C@H]3CC[C@]12C	Prothrombin (F2, Homo sapiens, UniProt P00734)	enzyme activity, inhibitor		added: unfractionated heparin 250 µM	140 ± 5.1 µM

Compound	target	assay	test system	conditions	IC50
N=C(NCCCCC(N)C(N)=O)NCCSCC1OC(n2cnc3c(N)ncnc32)C(O)C1O (stereo not shown)	EHMT2	enzyme activity, inhibitor, fluorescence			> 100 µM
COC(=O)[C@]1(C(C)C)C=C(C(=O)Nc2cccc(C(=O)Nc3ccc(Nc4nccc(-c5cccnc5)n4)c(C)c3)c2)C(=O)CC1	Mitogen-activated protein kinase 8 (MAPK8, Homo sapiens, UniProt P45983)	kinase activity, inhibitor		added: GSH 10 mM	0.537 ± 0.131 µM
CCCCCCCCCCCCCCCCC1=C[C@H](C(=O)OCC)[C@H]2C(=O)C(C(=O)OC)=C(CCCCCCCCCCCCCCCC)[C@H]2[C@H]1C(=O)OC	protein kinase A	inhibitor			> 50 µM
CN(C(=O)c1ccn2ncc(-c3ccc(C(N)=O)cc3)c2c1)c1ccc(C#N)cn1	Melanocortin receptor 3 (MC3R, Homo sapiens, UniProt P41968)	ligand displacement			> 30 µM
CC[C@H](C)[C@@H]1NC(=O)[C@H](Cc2c[nH]c3ccccc23)NC(=O)CNC(=O)c2cc3cc(c2)C(=O)NC[C@H](NC(=O)[C@H](Cc2ccc(O)cc2)NC1=O)C(=O)N[C@@H](Cc1ccccc1)C(=O)N[C@@H](Cc1ccc2ccccc2c1)C(=O)N[C@@H](CCCNC(=N)N)C(=O)N[C@@H](CCCNC(=N)N)C(=O)N[C@@H](CCCNC(=N)N)C(=O)N[C@@H](CCCNC(=N)N)C(=O)N[C@H](C(=O)NCCC(=O)NCCC(=O)N[C@@H](CCCCN)C(N)=O)CNC3=O	NF-kappa-B essential modulator, with IKK-beta (IKBKG, Homo sapiens, UniProt Q9Y6K9)	inhibitor, HTRF			1.5 ± 0.2 µM
COc1ccc(/C=C/C(=O)c2ccc3c(c2)OCO3)cc1OC	Broad substrate specificity ATP-binding cassette transporter ABCG2 (ABCG2, Homo sapiens, UniProt Q9UNQ0)	transporter efflux, inhibitor, flow cytometry	HEK293	30 min	0.54 µM
CC(=O)OCCc1ccc(O)c(O)c1	Pancreatic alpha-amylase (AMY2, Sus scrofa, UniProt P00690)	enzyme activity, inhibitor			> 500 µM
CC(C)C[C@H](NC(=O)[C@H](CC(N)=O)NC(=O)[C@H](CC(C)C)NC(=O)[C@@H](NC(=O)[C@@H](NC(=O)[C@@H]1CCCN1C(=O)[C@H](CCCNC(=N)N)NC(=O)[C@H](CCCCN)NC(=O)[C@@H]1CCCN1)[C@@H](C)O)[C@@H](C)O)C(=O)N[C@@H](Cc1ccccc1)C(=O)NCCCCCC(=O)N[C@@H](CCCNC(=N)N)C(=O)N[C@@H](CCCNC(=N)N)C(=O)N[C@@H](CCCNC(=N)N)C(=O)N[C@@H](CCC(N)=O)C(=O)N[C@@H](CCCNC(=N)N)C(=O)N[C@@H](CCCNC(=N)N)C(=O)N[C@@H](CCCCN)C(=O)N[C@@H](CCCCN)C(=O)N[C@@H](CCCNC(=N)N)C(=O)NCC(N)=O	Mitogen-activated protein kinase 10 (MAPK10, Homo sapiens, UniProt P53779)	enzyme activity, inhibitor, radiometric		pH 7.5	1.2 µM
NC1CC=C(c2cc3c(Nc4cc5ncsc5cc4F)ncnc3s2)CC1 (stereo not shown)	RIPK2	enzyme activity, inhibitor			0.008 µM
CC(C=CC1C(CO)=CC(=O)CC1(C)C)OC1OC(CO)C(O)C(O)C1O (stereo not shown)	Tyrosine-protein phosphatase non-receptor type 1 (PTPN1, Homo sapiens, UniProt P18031)	enzyme activity, inhibitor, absorbance			> 100 µM
COc1cc(CCC(=O)CC(=O)CCc2ccc(O)cc2)ccc1O	Pancreatic triacylglycerol lipase (PNLIP, Sus scrofa, UniProt P00591)	enzyme activity, inhibitor, absorbance			81.5 µM
O=C(O)CC(NS(=O)(=O)c1cccc2nsnc12)C(=O)O (stereo not shown)	P2Y purinoceptor 14 (P2RY14, Homo sapiens, UniProt Q15391)	antagonist			0.0165 µM
Nc1ccc(Oc2c(F)c(F)c(Oc3ccc(N)cc3)c(F)c2F)cc1	Estrogen receptor beta (ESR2, Homo sapiens, UniProt Q92731)	coactivator recruitment, antagonist			0.81 µM
N[C@@H](CCC(=O)N[C@@H](CS[Se]Cc1ccc(C(=O)Nc2cc(C(F)(F)F)c(Br)c(C(F)(F)F)c2)cc1)C(=O)NCC(=O)O)C(=O)O	Low molecular weight phosphotyrosine protein phosphatase (ACP1, Homo sapiens, UniProt P24666)	enzyme activity, inhibitor		added: pNPP, GSH 1 mM	43 ± 11 µM
CCCCc1ccc(-c2ccc(C(=O)Nc3cccc(S(=O)(=O)O)c3)cc2)cc1	Neutrophil elastase (ELANE, Homo sapiens, UniProt P08246)	enzyme activity, inhibitor, fluorescence			35.2 µM
COc1cc2oc3cc(O)c(OC)c(CC=C(C)C)c3c(=O)c2c(O)c1CC=C(C)C	α-glucosidase Saccharomyces cerevisiae			added: p-nitrophenyl glucoside	15 µM
Cc1ccc(NC(=O)NC(C)(C)c2cccc(NC3=CC(=O)N(C4CCC(=O)NC4=O)C3=O)c2)cc1Cl (stereo not shown)	Protein cereblon (CRBN, Homo sapiens, UniProt Q96SW2)	ligand displacement, TR-FRET			0.57 µM
CN1CCc2cc(Nc3ncc(C(F)(F)F)c(NCc4cc[nH]n4)n3)ccc2C1	Serine/threonine-protein kinase MARK1 (MARK1, Homo sapiens, UniProt Q9P0L2)	enzyme activity, inhibitor, FRET			0.0314 µM
COc1cc(/C=C/C(=O)CC(=O)CCc2ccc(O)c(OC)c2)ccc1O	3 beta-hydroxysteroid dehydrogenase/Delta 5-->4-isomerase type 2 (HSD3B2, Homo sapiens, UniProt P26439)	enzyme activity, inhibitor	KGN cell homogenate	lower bound from 100 µM screen, added: pregnenolone	≥ 100 µM
CCC(=O)N1CCC=C(c2cc3c(Nc4cc5ncsc5cc4F)ncnc3s2)C1	RIPK2	enzyme activity, inhibitor			0.011 µM
NS(=O)(=O)Oc1ccc(CN(c2cc(F)cc(F)c2)n2cnnc2)cc1	Steryl-sulfatase (STS, Homo sapiens, UniProt P08842)	enzyme activity, inhibitor	JEG-3 intact monolayers		0.01 to 0.1 µM
Cc1ccc(NC(=O)c2cccc(S(=O)(=O)N3CCOCC3)c2)c(C)c1	Ectonucleoside triphosphate diphosphohydrolase 3 (Homo sapiens, UniProt O75355)	enzyme activity, inhibitor, absorbance			3.21 µM
COC1C=CC=C(C)C(=O)NC2=CC(=O)C(NCCN(C)C)=C(CC(C)CC(OC)C(O)C(C)C=C(C)C1OC(N)=O)C2=O (stereo not shown)	Lysine-specific demethylase 3A (KDM3A, Homo sapiens, UniProt Q9Y4C1)	enzyme activity, inhibitor, AlphaScreen			< 1 µM

Some of these lines once more:
Compound	target	assay	test system	conditions	IC50
COC(=O)C1C(C=NN=CC2=Cc3cc4c(cc3C(c3cc(OC)c(OC)c(OC)c3)C2C(=O)OC)OCO4)=Cc2cc3c(cc2C1c1cc(OC)c(OC)c(OC)c1)OCO3 (stereo not shown)	tubulin alpha/beta (Leishmania infantum, UniProt A0A381MCS3+A4HTR0)	tubulin polymerization, inhibitor		37 °C	> 20 µM
CC(C)C[C@H](NC(=O)[C@H](CC(N)=O)NC(=O)[C@H](CC(C)C)NC(=O)[C@@H](NC(=O)[C@@H](NC(=O)[C@@H]1CCCN1C(=O)[C@H](CCCNC(=N)N)NC(=O)[C@H](CCCCN)NC(=O)[C@@H]1CCCN1)[C@@H](C)O)[C@@H](C)O)C(=O)N[C@@H](Cc1ccccc1)C(=O)NCCCCCC(=O)N[C@@H](CCCNC(=N)N)C(=O)N[C@@H](CCCNC(=N)N)C(=O)N[C@@H](CCCNC(=N)N)C(=O)N[C@@H](CCC(N)=O)C(=O)N[C@@H](CCCNC(=N)N)C(=O)N[C@@H](CCCNC(=N)N)C(=O)N[C@@H](CCCCN)C(=O)N[C@@H](CCCCN)C(=O)N[C@@H](CCCNC(=N)N)C(=O)NCC(N)=O	Mitogen-activated protein kinase 10 (MAPK10, Homo sapiens, UniProt P53779)	enzyme activity, inhibitor, radiometric		pH 7.5	1.2 µM
N=C(N)NCCC[C@H](NC(=O)[C@H](CC(=O)O)NC(=O)[C@@H]1CSCC(=O)NCC(=O)N[C@@H](Cc2c[nH]cn2)C(=O)N[C@H](Cc2ccccc2)C(=O)N[C@@H](CCCNC(=N)N)C(=O)N[C@H](Cc2c[nH]c3ccccc23)C(=O)N1)C(=O)N[C@@H](Cc1ccccc1)C(=O)NCC(N)=O	Melanocyte-stimulating hormone receptor (MC1R, Homo sapiens, UniProt Q01726)	ligand displacement, radioligand			1.8 µM
Cc1cc(N2CC[C@@](C#N)(C3CC3)C2=O)cc(NC(=O)Cc2ccccc2)n1	Bifunctional glutamate/proline--tRNA ligase (EPRS1, Homo sapiens, UniProt P07814)	enzyme activity, inhibitor, absorbance			0.0456 µM
O=C(Nc1ccc(-c2nc(-c3ccccc3)cs2)cc1)C1CCN(Cc2ccc(F)cc2)CC1	Ephx2	enzyme activity, inhibitor, fluorescence		pH 7.4, with preincubation	0.158 µM
CCCCCCCCCCCCCCCCC1=C[C@H](C(=O)OCC)[C@H]2C(=O)C(C(=O)OC)=C(CCCCCCCCCCCCCCCC)[C@H]2[C@H]1C(=O)OC	protein kinase A	inhibitor			> 50 µM
